Measurements pooled from the literature.
A part holds a random share of what one study measured.
Sequence of UniProt Q02779 (whole entry, looked up): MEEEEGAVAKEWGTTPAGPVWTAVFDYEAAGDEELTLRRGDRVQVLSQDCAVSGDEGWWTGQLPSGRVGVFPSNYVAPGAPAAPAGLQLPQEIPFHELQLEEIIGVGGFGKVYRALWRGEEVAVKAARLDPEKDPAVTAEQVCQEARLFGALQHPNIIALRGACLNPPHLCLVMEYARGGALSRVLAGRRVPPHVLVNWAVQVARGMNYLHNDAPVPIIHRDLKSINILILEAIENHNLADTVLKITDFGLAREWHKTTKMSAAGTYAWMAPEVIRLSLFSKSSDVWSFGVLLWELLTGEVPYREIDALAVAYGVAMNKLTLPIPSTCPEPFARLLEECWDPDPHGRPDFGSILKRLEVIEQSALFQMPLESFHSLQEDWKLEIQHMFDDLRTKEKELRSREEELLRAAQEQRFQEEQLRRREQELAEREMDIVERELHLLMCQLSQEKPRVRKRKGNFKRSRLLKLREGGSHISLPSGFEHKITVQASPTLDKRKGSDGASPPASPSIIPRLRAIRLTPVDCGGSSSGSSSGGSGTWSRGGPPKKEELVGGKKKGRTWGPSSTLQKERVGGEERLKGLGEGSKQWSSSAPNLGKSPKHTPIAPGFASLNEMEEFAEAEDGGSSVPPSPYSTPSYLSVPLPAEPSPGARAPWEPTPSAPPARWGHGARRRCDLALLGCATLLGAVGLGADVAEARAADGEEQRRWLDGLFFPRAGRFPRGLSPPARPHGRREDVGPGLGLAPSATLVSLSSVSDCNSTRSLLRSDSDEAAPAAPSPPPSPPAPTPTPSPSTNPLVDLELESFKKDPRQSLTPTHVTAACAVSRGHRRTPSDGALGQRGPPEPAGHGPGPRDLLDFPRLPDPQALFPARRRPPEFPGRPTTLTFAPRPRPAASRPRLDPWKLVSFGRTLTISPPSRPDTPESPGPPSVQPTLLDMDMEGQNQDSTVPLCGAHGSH
Sequence of UniProt O14757 (whole entry, looked up): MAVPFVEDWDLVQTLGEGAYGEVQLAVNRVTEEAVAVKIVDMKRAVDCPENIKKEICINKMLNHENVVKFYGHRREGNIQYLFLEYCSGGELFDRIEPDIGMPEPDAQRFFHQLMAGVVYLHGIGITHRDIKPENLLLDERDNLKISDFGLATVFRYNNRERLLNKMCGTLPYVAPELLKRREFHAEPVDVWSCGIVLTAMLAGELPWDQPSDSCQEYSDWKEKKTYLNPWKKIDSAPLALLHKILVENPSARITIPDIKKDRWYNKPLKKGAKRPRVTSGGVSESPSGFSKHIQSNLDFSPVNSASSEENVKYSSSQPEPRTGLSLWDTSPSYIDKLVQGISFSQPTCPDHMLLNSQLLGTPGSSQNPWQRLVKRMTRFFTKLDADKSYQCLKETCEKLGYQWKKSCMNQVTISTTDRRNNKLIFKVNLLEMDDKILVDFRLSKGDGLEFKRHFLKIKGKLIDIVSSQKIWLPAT
Sequence of UniProt Q2M2I8 (whole entry, looked up): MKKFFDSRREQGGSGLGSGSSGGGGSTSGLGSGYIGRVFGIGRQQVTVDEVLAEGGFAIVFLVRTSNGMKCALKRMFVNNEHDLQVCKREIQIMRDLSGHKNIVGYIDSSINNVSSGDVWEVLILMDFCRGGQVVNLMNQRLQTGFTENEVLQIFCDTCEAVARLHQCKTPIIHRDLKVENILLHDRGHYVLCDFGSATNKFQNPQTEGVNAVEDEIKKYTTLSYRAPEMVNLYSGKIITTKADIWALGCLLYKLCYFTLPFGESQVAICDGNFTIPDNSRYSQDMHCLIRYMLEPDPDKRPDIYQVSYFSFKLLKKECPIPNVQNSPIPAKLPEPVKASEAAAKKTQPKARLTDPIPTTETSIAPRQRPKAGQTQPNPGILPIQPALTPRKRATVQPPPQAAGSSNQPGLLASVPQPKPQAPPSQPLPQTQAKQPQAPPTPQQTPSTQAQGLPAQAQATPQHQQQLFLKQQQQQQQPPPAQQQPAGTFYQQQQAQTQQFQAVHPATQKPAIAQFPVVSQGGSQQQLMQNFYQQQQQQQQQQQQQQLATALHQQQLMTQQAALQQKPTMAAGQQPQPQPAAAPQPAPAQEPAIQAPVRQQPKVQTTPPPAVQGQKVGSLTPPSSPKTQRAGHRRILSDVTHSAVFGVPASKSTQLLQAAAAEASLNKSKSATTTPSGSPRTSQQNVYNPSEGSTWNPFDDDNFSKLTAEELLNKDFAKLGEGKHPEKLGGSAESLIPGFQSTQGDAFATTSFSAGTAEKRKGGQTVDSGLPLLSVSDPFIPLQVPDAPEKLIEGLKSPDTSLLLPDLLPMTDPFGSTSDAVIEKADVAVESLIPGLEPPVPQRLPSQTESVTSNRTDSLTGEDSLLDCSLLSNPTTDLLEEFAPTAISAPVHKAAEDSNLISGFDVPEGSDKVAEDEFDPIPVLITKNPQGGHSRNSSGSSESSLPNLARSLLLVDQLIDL
Sequence of UniProt Q9Y243 (whole entry, looked up): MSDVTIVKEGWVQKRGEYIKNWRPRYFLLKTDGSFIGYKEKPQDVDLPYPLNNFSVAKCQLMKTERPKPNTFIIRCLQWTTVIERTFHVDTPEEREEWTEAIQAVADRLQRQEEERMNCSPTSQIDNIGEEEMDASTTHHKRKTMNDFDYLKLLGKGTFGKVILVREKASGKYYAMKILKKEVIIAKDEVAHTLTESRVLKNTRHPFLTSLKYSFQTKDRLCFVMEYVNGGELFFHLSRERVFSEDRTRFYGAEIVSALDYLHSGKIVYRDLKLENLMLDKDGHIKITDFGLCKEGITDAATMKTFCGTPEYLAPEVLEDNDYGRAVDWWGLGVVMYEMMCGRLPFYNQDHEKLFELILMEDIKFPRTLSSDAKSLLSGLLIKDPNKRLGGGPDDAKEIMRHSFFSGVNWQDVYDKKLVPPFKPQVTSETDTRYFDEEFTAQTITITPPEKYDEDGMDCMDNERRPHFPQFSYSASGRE

Block 1
SMILES: O=C1NC(=O)/C(=C/c2ccc3c(c2)OC(F)(F)O3)S1
Effect on: enzyme activity
Action: inhibitor
Tested at: 0.5 µM
Baseline: control
| target | remaining activity [%] |
| --- | --- |
| CHEK1 (Homo sapiens, UniProt O14757) | 101 |
| AKT3 (Homo sapiens, UniProt Q9Y243) | 103 |
| MAP3K10 (Homo sapiens, UniProt Q02779) | 91.2 |

Block 2
Target: Interferon regulatory factor 5, full length, phosphomimetic (IRF5, Homo sapiens, UniProt Q13568-2, residues 1-514, K96S/S451D/S453D/S456D/S462D)
Method: protein-binding microarray
Molecule type: double-stranded DNA, one strand shown
Medium: in vitro
Tested at: 250 nM
Notes: 60-bp whole probe
Together with: salmon DNA 0.4 mg/ml
Baseline: random background probes
Direction: higher = stronger binding
All sequences stand within: GCCTAGCAC … GTCTTGATTCGCTTGACGCTGCTG
| Strand | log fluorescence |
| --- | --- |
| TGTGCCATATTTATCTGCAAGTGCTAG | 0.213 z-score |
| TGCACTCTTTACATGGGTTTGTGCTAG | 0.155 z-score |
| TTAGGACTGGGATATCGGTTAGTGCTA | 0.96 z-score |
| GACGACCTCAGTCTCGAGACGTGCTAG | -0.136 z-score |
| GACGGACGGGACTATCGGGACGTGCTA | 0.829 z-score |
| GACGACTTCGGGTATCGAGACGTGCTA | 0.855 z-score |
| GACGGTTCCTGTTTCGGGACGTGCTAG | 3.34 z-score |
| TTGGGTTTCGACTATCGGTTAGTGCTA | 8.6 z-score |

Block 3
Target: RNA binding protein fox-1 homolog 2, RRM domain, GST-SBP tag (RBFOX2, Homo sapiens, UniProt O43251-10, residues 100-194)
Method: RNA Bind-n-Seq
Molecule type: RNA
Medium: in vitro
Tested at: 365 nM
Notes: natural RNA segment, single round, ends assumed
Baseline: no-protein control
Direction: higher = stronger binding
All sequences stand within: GGGAGUUCUACAGUCCGACGAUC … UGGAAUUCUCGGGUGCCAA
Residues (chain): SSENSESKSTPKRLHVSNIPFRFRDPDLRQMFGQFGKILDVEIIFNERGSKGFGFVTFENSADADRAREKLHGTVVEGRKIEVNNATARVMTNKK
| Strand | RBNS enrichment (R) |
| --- | --- |
| GUGGGUGUUGGCUGGGGCAUUAAAACUCAUCAUCGCCACCCAUCUCUGUCUCUCGUCACCCUGAUCUCCCCGCACGGUUGUGUCCCUGGUCUGGAACAUUAGUUUUUUUA | 0.999 |
| UUUUUAAAUAUUGUGAUGUUUUAAGAGCCGAUGCUGGCUUCUUUUUUGCAUGUUACAGUUUUCUGGGUUUAUUUUGCCCCCCCCCCCUUUUAUGGAAAAACAACGGAAGU | 2.09 |
| CACAAAGCAGCCUGCGUGCAUUCUUUGAGGUGAGCAUUUAAUCACACACUUGAUGACAUUACAAAGCUAAACCAUGCCUCUUGGUAAAGCUGCUUGAUUACAAGUGCCAG | 0.433 |
| GACCCAAGGGCCCUUUGGUGUGUAGUGUACAGCACCUUAUUUUAGCAUCAAUAAAUCCAUUAUCCAGUUUUUGAAAAAUCAACUCCAAGGACUGGGUUUAUCUUUCAGUU | 0.552 |
| UACCGAGAAGGUCUAAGUAAAACAACGCAAGAUCAGCUCUUUCAGACUCUUAUCCAGAGGGCUCAGAGACAGAGUGUUCUUUCAUUUGUACCGCCCUCUCAGUUCAACUU | 0.217 |
| GUCUGUGGUGUGGAGAGGGUGUUCACUGUGUAAUCUUGGGCUGUGUGGAGUUGUUCUUAUCACCUUGCUUCAGAUGUUACUUUGGCGUCCUCCACCAGUUCUCCAUGCGC | 0.453 |
| UGCAUCUUAGACCUCUUGAGCUGUGAAUUAGCACUAUUUUCUAUGGUUACUUAUUAUCUAUUGUUUUAUACUUUCUAUGUUCAUUUCAAAUAAUGUUAAUGUUAUUCAAU | 1.17 |
| UUGUACAAAAAGUAAAGAGUAUCCUAAAGAUUGUAUUCAUUGUAAUCAAGUAAUGCAAUCAUCUCUCCUCUCUUGAAAUCUUGCUGGACCUCUUAGGCUACAAUAAACUG | 0.315 |

Single results of other studies
| Compound | target | test | setting | how to read | quantity | result |
| --- | --- | --- | --- | --- | --- | --- |
| COc1ccc2c(O[C@@H]3C[C@H]4C(=O)N[C@]5(C(=O)O)CC5/C=C\CCCCC[C@H](NC(=O)OC5CCCC5)C(=O)N4C3)cc(-c3csc(NC(=O)C(C)C)n3)nc2c1C (some centres unmarked) | AP2-associated protein kinase 1 (AAK1, Homo sapiens, UniProt Q2M2I8) | KINOMEscan | 1 µM | baseline: control | remaining binding | 100% |
